Published values pooled from the literature.
Parts stem from different laboratories: compare values within a part only.

Study 1
Target: Sal-like protein 4, full length isoform B (SALL4, Homo sapiens, UniProt Q9UJQ4-2, residues 1-616)
Method: universal PBM
Molecule type: double-stranded DNA, one strand shown
Medium: in vitro
Tested at: not given
Setting: 8-mer, flanks averaged, mean of replicates
Reading: higher = stronger binding
For `GAACCTGC`, the E-score was -0.202.
`CTATTTGA` gave an E-score of 0.207.
With `TCGTTGCA` the E-score was 0.0314.
With `CTTGGCCC` the E-score was -0.315.
The E-score of `AACCCAGT` is reported as -0.18.
`ATTCTGAG` gave an E-score of 0.18.
For `GCCGAAGC`, the E-score was -0.28.
The E-score of `CAGCGGTA` is reported as -0.0392.

Study 2
Target: Replicase polyprotein 1ab, main protease (rep, Severe acute respiratory syndrome coronavirus 2, UniProt P0DTD1)
Observed: enzyme activity
Action: inhibitor
Tested at: 20 µM
CN1C(=O)C(N2CCCCC2)S/C1=C\C(=O)O (centres unmarked) has an inhibition of 3.46%.
CCn1c(-c2nonc2N)nc2cnc(Oc3cccc(NC(=O)c4ccc(OCCN5CCOCC5)cc4)c3)cc21 gave an inhibition of -11.9%.
With O=C(CC1Sc2ncnn2C1=O)Nc1ccc(Br)cc1 (centres unmarked) the inhibition was 39.5%.

Study 3
Target: Interferon regulatory factor 7, full length, phosphomimetic (IRF7, Homo sapiens, UniProt Q92985, residues 1-503, S101K/S471D/S472D/S475D/S476D/S477D/S483D/S484D/S487D)
UniProt Q92985, sequence (whole entry, unmodified, looked up): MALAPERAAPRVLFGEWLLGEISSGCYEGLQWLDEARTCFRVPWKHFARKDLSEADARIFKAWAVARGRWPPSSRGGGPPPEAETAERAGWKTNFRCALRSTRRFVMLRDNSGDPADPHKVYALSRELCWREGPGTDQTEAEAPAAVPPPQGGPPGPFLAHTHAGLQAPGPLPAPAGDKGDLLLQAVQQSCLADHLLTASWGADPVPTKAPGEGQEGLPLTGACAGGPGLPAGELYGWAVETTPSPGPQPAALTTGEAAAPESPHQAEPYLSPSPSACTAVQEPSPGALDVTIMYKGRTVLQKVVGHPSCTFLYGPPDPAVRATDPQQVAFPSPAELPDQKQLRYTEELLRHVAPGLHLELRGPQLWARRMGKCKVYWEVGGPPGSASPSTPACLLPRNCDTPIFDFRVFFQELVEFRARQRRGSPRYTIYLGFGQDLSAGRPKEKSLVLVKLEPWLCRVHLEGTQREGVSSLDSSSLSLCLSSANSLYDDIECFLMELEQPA
Method: protein-binding microarray
Molecule type: double-stranded DNA, one strand shown
Medium: in vitro
Tested at: 250 nM
Setting: 60-bp whole probe
Added: salmon DNA 0.4 mg/ml
Relative to: random background probes
Reading: higher = stronger binding
All sequences stand within: GCCTAGCAC … GTCTTGATTCGCTTGACGCTGCTG
For `GACGATAACGGGACTGGAGACGTGCTA`, the log fluorescence was -0.508 z-score.
`TCAAACCTGGGTCTCTGACTGTGCTAG` gave a log fluorescence of -0.354 z-score.
With `TTAGGTTTCCTTTTCTTTTAGTGCTAG` the log fluorescence was 6.29 z-score.
`TCACATTGCTGCCCTCAGACTGTGCTA` has a log fluorescence of 0.353 z-score.
With `TTAGGACTGCGTCTCCTTTAGTGCTAG` the log fluorescence was -0.343 z-score.
`TTAGGTCTCCTTTTCCTTTTGTGCTAG` gave a log fluorescence of 2.45 z-score.
With `GACGTTTTCGGGACTGGAGACGTGCTA` the log fluorescence was 0.83 z-score.
The log fluorescence of `TTAGGTATCGACTATCGGTGAGTGCTA` is reported as 0.127 z-score.

Study 4
Target: Replicase polyprotein 1ab, nsp13 helicase (rep, Severe acute respiratory syndrome coronavirus 2, UniProt P0DTD1)
Action: inhibitor
Tested at: 20 µM
With COc1ccc2cc1Oc1ccc(cc1)C[C@H]1c3cc(c(OC)cc3CCN1C)Oc1c(OC)c(OC)cc3c1[C@H](C2)N(C)CC3 the inhibition was 5.9%.
The inhibition of Cl/C(=C\n1cncn1)c1ccc(Cl)cc1Cl is reported as 6%.
COc1cc(OC)cc(-c2ccc3c(-c4ccc(F)cc4)[nH]nc3n2)c1 gave an inhibition of -1.05%.
With C[C@@]1(c2cc(-c3cncnc3)c(F)cc2F)CCSC(N)=N1 the inhibition was -3.78%.
The inhibition of CCC(C)(CN(C)C)OC(=O)c1ccccc1 (centres unmarked) is reported as 1.63%.
For N#Cc1c(Oc2ccc(F)c(NC(=O)Cc3cccc(C(F)(F)F)c3)c2)ccc2nc(NC(=O)C3CC3)sc12, the inhibition was 4.98%.
The inhibition of O=[N+]([O-])c1cccc2c(Br)[nH]nc12 is reported as 2.42%.
Cc1cnc(C(=O)N[C@H]2CCCCC/C=C\[C@@H]3C[C@@]3(C(=O)NS(=O)(=O)C3CC3)NC(=O)[C@@H]3C[C@@H](Oc4nc5ccccc5c5ccccc45)CN3C2=O)cn1 gave an inhibition of 6.3%.
With Cn1cc(-c2[nH]c3cc(NC(=O)[C@H](N)C4CCCCC4)cc4c3c2C=NNC4=O)cn1 the inhibition was 56.1%.
Cn1cnc2[nH]c(=O)[nH]c(=O)c21 gave an inhibition of -4.23%.
C[C@H](C[C@H](N)C(=O)O)C(=O)O has an inhibition of 5.86%.
CC(C)(CC(=O)N1CCCC1)NCC(=O)N1C[C@@H](F)C[C@H]1C#N has an inhibition of 2.26%.
The inhibition of Cc1coc2c1C(=O)C(=O)c1c-2ccc2c1CCCC2(C)C is reported as 3.77%.
For CC(=O)CC(=O)O, the inhibition was 0.36%.
Cc1ccccc1N1CCN(CCc2nnc3n2CCCC3)CC1 gave an inhibition of 1.68%.
The inhibition of O=C(Nc1cc(C(F)(F)F)ccc1O)Nc1cc(C(F)(F)F)ccc1O is reported as 5.28%.
C[N+](C)(C)CCCCCNCC12CC3CC(CC(C3)C1)C2 gave an inhibition of 0.23%.
With C1CCC(N=C(NC23CC4CC(CC(C4)C2)C3)N2CCOCC2)CC1 the inhibition was 2.14%.
The inhibition of N[C@@H](CC(=O)Nc1ccc(Oc2cc(F)c(F)cc2Br)cc1)C(=O)O is reported as 8.1%.
The inhibition of C[C@H](CCC(=O)O)[C@H]1CC[C@H]2[C@@H]3CC[C@@H]4C[C@H](O)CC[C@]4(C)[C@H]3CC[C@]12C is reported as 0.89%.
For O=C(O)[C@@H](S)[C@@H](S)C(=O)O, the inhibition was 99.9%.
For NC(N)=Nc1nc(CSCCN/C=N/S(=O)(=O)c2ccc(Br)cc2)cs1, the inhibition was 2.72%.
For O=C1OC2(c3cc(I)c(O)c(I)c3Oc3c2cc(I)c(O)c3I)c2c(Cl)c(Cl)c(Cl)c(Cl)c21, the inhibition was -2.61%.
CC[C@H](C)[C@H](N)C(=O)O gave an inhibition of 5.58%.
Cc1ccc(S(=O)(=O)N2CCC[C@H]2c2ccc(F)cc2)cc1 has an inhibition of 1.98%.

Study 5
Cell line: HEK-293T/ACE2
Observed: pseudovirus infection
Organism: VSV pseudotyped with SARS-CoV-2 spike
Tested at: 10 µM
Time: 16 h
Relative to: vehicle-treated
For N[C@@H]1CON=C1O, the GFP-positive cells was 73.6%.
For CC(=O)N(O)CCCCCNC(=O)CCC(=O)N(O)CCCCCNC(=O)CCC(=O)N(O)CCCCCN, the GFP-positive cells was 62.1%.
With Cc1cccc(C)c1OCC(=O)N[C@@H](Cc1ccccc1)[C@@H](O)C[C@H](Cc1ccccc1)NC(=O)[C@H](C(C)C)N1CCCNC1=O the GFP-positive cells was 50.9%.
For CC1=C(/C=C/C(C)=C/C=C/C(C)=C/C=C/C=C(C)/C=C/C=C(C)/C=C/C2=C(C)CCCC2(C)C)C(C)(C)CCC1, the GFP-positive cells was 84.6%.

Study 6
Target: Ras GTPase-activating protein-binding protein 1, C-terminal RGG region (G3BP1, Homo sapiens, UniProt Q13283)
UniProt Q13283, sequence (whole entry, looked up): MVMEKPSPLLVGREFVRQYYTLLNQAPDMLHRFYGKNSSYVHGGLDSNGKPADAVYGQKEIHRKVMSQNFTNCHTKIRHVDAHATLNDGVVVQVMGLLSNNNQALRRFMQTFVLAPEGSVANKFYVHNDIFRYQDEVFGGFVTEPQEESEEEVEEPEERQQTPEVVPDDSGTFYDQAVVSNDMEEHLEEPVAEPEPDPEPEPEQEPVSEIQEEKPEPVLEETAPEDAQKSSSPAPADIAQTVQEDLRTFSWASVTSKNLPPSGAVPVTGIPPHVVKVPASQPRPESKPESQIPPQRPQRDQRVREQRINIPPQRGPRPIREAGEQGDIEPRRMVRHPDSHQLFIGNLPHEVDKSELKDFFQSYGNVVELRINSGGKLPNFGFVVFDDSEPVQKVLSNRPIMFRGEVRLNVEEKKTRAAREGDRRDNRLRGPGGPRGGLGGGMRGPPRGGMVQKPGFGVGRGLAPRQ
Method: RNA Bind-n-Seq
Molecule type: RNA
Medium: in vitro
Tested at: 1 µM
Setting: whole 134-nt RNA, ends assumed
Added: 150 mM KCl
Relative to: input library
Reading: higher = stronger binding
`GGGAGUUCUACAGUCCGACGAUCCAAGUCCUGUGCUACACAUCGUAUGUACCGAAUCGGGAGGGAAAAAGGGAAAGGGAAAGUAUUAUGUUACGCCGUUCGGAUCUGCACUUCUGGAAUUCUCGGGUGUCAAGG` gave a log2 enrichment of 1.56.
For `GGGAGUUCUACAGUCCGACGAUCCCUCAAGUCCUGUGCUACACAUCGUAUGUACCGAAUCGGGGAGGGGAGGAGGGAAAGUAUUAUGUUACGCCGUUCGGAUCUGCACUUCCAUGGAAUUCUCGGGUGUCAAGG`, the log2 enrichment was 0.391.
`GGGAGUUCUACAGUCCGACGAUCCUCAAGUCCUGUGCUACACAUCGUAUGUACCGAAUCGGAAAAAAAGGUGGUGGAAAGUAUUAUGUUACGCCGUUCGGAUCUGCACUUCCAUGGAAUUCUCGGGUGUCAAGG` has a log2 enrichment of -1.23.
For `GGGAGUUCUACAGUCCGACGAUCAAGUCCUGUGCUACACAUCGUAUGUACCGAAUCGGAAAAAAAGGAAAAAAAGGAGGAAAGUAUUAUGUUACGCCGUUCGGAUCUGCACUUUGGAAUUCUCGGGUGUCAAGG`, the log2 enrichment was -2.04.
For `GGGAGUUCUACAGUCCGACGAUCAGUCCUGUGCUACACAUCGUAUGUACCGAAUCGGAAAAAGGAAAAAGGAAAAAGGGGAAAGUAUUAUGUUACGCCGUUCGGAUCUGCACUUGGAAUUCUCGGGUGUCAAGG`, the log2 enrichment was -1.75.
`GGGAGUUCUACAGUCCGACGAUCUUUUGAGGAAAGGAUGAAGGAGCUCAGAGAAGAGGUAAGGGUCUCCUAUCCUUCCCCUCUCCCCCAGAUUUGAGUUUUAUGUUAUGAAUCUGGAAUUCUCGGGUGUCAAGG` has a log2 enrichment of -1.
The log2 enrichment of `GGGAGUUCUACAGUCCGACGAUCUAACUUUAGAGGAGGAUCUGAUGGAUAUGGCAGUGGACGUGGAUUUGGGGAUGGCUAUAAUGGGUAUGGAGGAGGGCCUGGAGGUGGCAAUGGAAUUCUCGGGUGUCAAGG` is reported as 0.29.
`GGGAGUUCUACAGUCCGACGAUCUAACUUUAGAGGAGGAGCUGAUGGAUAUGGCAGUGGACGUGGAUUUGGGGAUGGCUAUAAUGGGUAUGGAGGAGGACCUGGAGGUGGCAAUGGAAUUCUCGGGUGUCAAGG` gave a log2 enrichment of -0.714.

A few entries again (study 4):
The inhibition of N[C@@H](CC(=O)Nc1ccc(Oc2cc(F)c(F)cc2Br)cc1)C(=O)O is reported as 8.1%.
The inhibition of C[C@H](CCC(=O)O)[C@H]1CC[C@H]2[C@@H]3CC[C@@H]4C[C@H](O)CC[C@]4(C)[C@H]3CC[C@]12C is reported as 0.89%.
For O=C(O)[C@@H](S)[C@@H](S)C(=O)O, the inhibition was 99.9%.
For NC(N)=Nc1nc(CSCCN/C=N/S(=O)(=O)c2ccc(Br)cc2)cs1, the inhibition was 2.72%.
For O=C1OC2(c3cc(I)c(O)c(I)c3Oc3c2cc(I)c(O)c3I)c2c(Cl)c(Cl)c(Cl)c(Cl)c21, the inhibition was -2.61%.
CC[C@H](C)[C@H](N)C(=O)O gave an inhibition of 5.58%.
Cc1ccc(S(=O)(=O)N2CCC[C@H]2c2ccc(F)cc2)cc1 has an inhibition of 1.98%.
